Results collected from several papers.
Lines come from different studies, so protocols differ. Several values in a cell are separate wells, animals, samples, runs or records. Numbers after ± are the reported error.
BCL2L1: Bcl-2-like protein 1 (BCL2L1, Homo sapiens, UniProt Q07817)
UniProt Q07817, sequence (whole entry, looked up): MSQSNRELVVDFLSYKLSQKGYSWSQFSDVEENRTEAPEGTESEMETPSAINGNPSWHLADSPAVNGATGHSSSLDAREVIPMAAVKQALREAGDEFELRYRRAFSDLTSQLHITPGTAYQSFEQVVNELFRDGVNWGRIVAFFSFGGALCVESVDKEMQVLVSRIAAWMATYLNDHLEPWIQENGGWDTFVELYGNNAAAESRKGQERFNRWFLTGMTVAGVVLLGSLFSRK
Ribonucleoside-diphosphate reductase large subunit: Ribonucleoside-diphosphate reductase large subunit (Homo sapiens, UniProt P23921)
UniProt P23921, sequence (whole entry, looked up): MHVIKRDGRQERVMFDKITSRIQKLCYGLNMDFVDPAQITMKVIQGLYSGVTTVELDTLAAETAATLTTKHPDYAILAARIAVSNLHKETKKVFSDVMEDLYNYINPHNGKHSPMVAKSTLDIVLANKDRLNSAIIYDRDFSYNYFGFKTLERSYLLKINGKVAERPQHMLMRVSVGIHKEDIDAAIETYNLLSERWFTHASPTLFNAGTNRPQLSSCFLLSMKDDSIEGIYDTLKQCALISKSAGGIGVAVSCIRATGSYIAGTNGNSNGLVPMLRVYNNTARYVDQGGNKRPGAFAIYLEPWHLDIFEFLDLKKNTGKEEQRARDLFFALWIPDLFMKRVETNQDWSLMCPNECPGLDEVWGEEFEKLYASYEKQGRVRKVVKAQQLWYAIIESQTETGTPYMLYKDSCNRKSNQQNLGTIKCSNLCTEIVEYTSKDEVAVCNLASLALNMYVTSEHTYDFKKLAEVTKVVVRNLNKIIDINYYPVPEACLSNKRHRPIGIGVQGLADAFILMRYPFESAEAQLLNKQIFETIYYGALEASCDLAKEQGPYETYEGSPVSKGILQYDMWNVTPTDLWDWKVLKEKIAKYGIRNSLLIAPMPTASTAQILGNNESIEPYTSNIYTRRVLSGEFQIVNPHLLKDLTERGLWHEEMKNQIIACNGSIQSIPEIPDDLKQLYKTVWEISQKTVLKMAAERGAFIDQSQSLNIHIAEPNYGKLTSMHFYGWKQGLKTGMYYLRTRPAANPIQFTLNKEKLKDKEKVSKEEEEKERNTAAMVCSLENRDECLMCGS
B1: calmodulin C-domain; chain MKEQDSEEELIEAFKVFDRDGNGLISAAELRHVMTNLGEKLTDDEVDEMIREADIDGDGHINYEEFVRMMVSK
UniProt Q60603, sequence (whole entry, looked up): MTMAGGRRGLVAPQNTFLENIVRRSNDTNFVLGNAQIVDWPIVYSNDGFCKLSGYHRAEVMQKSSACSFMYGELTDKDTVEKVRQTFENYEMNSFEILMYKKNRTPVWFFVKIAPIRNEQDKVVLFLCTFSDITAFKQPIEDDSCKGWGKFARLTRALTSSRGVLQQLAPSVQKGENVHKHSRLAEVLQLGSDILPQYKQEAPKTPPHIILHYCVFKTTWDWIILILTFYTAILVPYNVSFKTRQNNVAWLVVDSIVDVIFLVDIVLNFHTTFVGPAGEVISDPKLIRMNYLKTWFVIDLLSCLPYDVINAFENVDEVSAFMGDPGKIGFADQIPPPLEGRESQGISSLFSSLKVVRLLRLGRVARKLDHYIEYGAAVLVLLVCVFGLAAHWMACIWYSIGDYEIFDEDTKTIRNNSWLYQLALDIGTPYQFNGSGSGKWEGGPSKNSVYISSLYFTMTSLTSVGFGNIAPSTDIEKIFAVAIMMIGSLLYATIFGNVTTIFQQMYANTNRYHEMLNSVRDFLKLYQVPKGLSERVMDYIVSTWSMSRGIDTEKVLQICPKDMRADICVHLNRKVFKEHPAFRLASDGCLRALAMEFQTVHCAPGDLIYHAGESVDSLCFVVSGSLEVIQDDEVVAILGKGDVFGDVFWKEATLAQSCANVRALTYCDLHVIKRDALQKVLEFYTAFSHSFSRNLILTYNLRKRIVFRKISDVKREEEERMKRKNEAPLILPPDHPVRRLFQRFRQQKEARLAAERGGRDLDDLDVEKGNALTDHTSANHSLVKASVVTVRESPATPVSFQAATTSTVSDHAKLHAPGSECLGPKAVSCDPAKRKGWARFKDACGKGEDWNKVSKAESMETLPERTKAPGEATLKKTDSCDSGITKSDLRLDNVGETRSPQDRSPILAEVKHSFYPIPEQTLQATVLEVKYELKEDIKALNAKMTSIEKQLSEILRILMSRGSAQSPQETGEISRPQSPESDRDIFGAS
UniProt Q08460, sequence (whole entry, unmodified, looked up): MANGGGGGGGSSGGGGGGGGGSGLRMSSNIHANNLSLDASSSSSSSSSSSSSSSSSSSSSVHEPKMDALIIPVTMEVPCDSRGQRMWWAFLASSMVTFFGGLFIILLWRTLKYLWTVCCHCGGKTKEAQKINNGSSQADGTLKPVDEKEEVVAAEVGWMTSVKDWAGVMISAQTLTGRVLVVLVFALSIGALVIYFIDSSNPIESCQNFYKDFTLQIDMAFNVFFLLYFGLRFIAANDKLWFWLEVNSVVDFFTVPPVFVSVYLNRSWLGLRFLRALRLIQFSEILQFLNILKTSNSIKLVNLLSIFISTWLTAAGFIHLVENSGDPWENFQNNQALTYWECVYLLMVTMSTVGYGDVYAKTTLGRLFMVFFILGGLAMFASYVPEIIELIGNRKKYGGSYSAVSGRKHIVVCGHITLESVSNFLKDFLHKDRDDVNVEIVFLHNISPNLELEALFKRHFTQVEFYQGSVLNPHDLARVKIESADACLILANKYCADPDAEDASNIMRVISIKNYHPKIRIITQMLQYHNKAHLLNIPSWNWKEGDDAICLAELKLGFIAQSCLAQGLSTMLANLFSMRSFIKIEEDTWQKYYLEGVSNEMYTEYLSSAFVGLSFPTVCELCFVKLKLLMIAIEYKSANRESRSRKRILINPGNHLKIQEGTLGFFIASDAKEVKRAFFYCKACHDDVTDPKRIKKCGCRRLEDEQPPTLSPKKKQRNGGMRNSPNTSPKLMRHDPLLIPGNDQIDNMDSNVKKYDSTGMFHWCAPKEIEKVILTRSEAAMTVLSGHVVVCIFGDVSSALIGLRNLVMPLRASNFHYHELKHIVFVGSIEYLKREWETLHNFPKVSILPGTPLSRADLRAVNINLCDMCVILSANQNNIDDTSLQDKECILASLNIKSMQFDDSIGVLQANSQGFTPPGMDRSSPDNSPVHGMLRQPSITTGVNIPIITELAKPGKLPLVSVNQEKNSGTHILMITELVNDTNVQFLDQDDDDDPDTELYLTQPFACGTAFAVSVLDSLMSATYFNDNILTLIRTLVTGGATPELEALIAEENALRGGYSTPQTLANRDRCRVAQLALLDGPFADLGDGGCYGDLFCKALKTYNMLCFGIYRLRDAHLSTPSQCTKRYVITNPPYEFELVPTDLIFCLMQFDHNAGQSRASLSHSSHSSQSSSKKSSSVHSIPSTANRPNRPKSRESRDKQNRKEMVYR
UniProt P63073, sequence (whole entry, looked up): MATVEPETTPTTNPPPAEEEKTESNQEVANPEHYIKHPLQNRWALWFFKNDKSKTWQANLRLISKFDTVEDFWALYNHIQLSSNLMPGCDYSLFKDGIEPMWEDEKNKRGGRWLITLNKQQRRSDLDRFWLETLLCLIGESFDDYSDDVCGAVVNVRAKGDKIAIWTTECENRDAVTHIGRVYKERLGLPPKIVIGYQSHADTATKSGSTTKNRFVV
UniProt P02730, sequence (whole entry, looked up): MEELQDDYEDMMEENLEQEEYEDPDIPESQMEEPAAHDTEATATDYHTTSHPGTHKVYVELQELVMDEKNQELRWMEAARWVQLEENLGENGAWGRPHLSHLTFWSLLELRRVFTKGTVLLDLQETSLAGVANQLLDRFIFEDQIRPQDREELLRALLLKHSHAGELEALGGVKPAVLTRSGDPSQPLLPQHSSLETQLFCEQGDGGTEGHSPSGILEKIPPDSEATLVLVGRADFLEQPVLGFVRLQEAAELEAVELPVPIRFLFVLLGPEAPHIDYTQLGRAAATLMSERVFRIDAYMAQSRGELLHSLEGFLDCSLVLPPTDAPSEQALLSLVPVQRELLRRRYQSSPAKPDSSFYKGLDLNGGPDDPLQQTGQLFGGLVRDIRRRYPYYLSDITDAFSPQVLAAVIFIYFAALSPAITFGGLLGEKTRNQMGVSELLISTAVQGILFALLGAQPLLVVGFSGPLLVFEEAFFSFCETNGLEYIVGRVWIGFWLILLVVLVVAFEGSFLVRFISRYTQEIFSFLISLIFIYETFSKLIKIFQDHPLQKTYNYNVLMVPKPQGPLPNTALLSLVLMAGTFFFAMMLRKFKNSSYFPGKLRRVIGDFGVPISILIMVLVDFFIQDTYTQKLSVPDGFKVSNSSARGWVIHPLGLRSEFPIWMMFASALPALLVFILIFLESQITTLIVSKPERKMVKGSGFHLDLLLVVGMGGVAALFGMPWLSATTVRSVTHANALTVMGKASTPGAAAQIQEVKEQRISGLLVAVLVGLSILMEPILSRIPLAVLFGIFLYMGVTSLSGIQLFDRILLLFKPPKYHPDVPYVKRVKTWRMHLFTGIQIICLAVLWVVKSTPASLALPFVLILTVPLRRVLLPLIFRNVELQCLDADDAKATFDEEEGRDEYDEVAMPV
UniProt P09769, sequence (whole entry, looked up): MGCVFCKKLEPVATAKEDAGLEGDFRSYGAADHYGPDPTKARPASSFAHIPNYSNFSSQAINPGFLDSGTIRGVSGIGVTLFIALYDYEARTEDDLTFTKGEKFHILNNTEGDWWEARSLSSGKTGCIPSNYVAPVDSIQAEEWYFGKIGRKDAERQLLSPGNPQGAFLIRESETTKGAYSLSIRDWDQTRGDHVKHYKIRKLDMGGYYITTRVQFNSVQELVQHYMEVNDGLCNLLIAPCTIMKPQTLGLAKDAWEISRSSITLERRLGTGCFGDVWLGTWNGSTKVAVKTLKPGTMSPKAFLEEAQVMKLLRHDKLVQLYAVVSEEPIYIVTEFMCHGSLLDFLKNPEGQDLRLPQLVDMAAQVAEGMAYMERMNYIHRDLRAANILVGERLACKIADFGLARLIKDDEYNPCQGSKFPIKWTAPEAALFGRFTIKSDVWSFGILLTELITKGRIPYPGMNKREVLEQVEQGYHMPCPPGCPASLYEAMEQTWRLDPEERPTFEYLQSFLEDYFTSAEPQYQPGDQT
UniProt Q8JGN5, sequence (whole entry, looked up): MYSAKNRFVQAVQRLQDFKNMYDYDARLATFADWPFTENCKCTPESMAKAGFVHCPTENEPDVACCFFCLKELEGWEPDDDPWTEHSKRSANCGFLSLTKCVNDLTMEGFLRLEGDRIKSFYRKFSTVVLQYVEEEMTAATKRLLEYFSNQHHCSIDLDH

Substance	target	assay	test system	conditions	Kd
CC(C)C[C@H](N)C(=O)O	Methyl-accepting chemotaxis protein Tlp3, sensing domain (Campylobacter jejuni, UniProt Q0P864)	binding, thermal shift curve fitting		at Tm sensing domain	2160 ± 411 µM
COc1cccc2c1C(=O)c1c(O)c3c(c(O)c1C2=O)C[C@@](O)(C(C)=O)C[C@@H]3O[C@H]1C[C@H](N)[C@H](O)[C@H](C)O1	HIV-1 nucleocapsid-SL3 RNA complex	binding, ESI-FTMS		pH 7.5	29.8 ± 1.9 µM
CC(=O)N[C@@H](CC(C)C)C(=O)N[C@@H](CCCCN)C(=O)N[C@@H](CCCCN)C(=O)N[C@@H](CC(C)C)C(=O)N[C@@H](CC(C)C)C(=O)N[C@@H](CCCCN)C(=O)N[C@@H](Cc1c[nH]c2ccccc12)C(=O)N[C@@H](CC(C)C)C(=O)N[C@@H](CCCCN)C(=O)N[C@@H](CCCCN)C(=O)N[C@@H](CC(C)C)C(=O)N[C@@H](CC(C)C)C(=O)N[C@@H](CCCCN)C(=O)N[C@@H](CC(C)C)C(=O)N[C@@H](C)C(=O)NCC(N)=O	HIV-1 RRE hairpin RNA	competitive fluorescence anisotropy		pH 7.4, 20 °C, with: rhodamine-Rev peptide	0.0012 ± 7e-05 µM
VGAQFHRFANDF	BCL2L1	yeast display titration	peptide	2 h, pH 8.0, room temperature	0.016 ± 0.004 µM
Cn1nc(CC(=O)Nc2cc(S(=O)(=O)Nc3cccc(Cl)c3)ccc2O)c2ccccc2c1=O	APOE (Homo sapiens, UniProt P02649, C130R)	SYPRO Orange displacement		pH 7.4, 25 °C	8.9 ± 0.5 µM
CC1=C(/C=C/C(C)=C/C=C/C(C)=C/C=O)C(C)(C)CCC1	Retinol-binding protein 2 (Rbp2, Rattus norvegicus, UniProt P06768)	binding, fluorescence titration		pH 7.4, 25 °C	0.011 ± 0.004 µM
Nc1nc2ncc(CNc3ccc(C(=O)N[C@@H](CCC(=O)O)C(=O)O)cc3)nc2c(=O)[nH]1	Eif4e (Mus musculus, UniProt P63073)	cap analogue binding, pyrene fluorescence competition		20 °C	> 10 µM
O=C1c2c(O)ccc(O)c2C(=O)c2c(NCCNCCO)ccc(NCCNCCO)c21	HIV-1 nucleocapsid-SL3 RNA complex	binding, ESI-FTMS		pH 7.5	10.3 ± 1.8 µM
CC(=O)N[C@@H](CC(C)C)C(=O)N[C@@H](CCCCN)C(=O)N[C@@H](CCCCN)C(=O)N[C@@H](CC(C)C)C(=O)N[C@@H](CC(C)C)C(=O)N[C@@H](CCCCN)C(=O)N[C@@H](CC(C)C)C(=O)N[C@@H](CC(C)C)C(=O)N[C@@H](CCCCN)C(=O)N[C@@H](CCCCN)C(=O)N[C@@H](Cc1c[nH]c2ccccc12)C(=O)N[C@@H](CC(C)C)C(=O)N[C@@H](CCCCN)C(=O)N[C@@H](CC(C)C)C(=O)N[C@@H](C)C(=O)NCC(N)=O	HIV-1 TAR hairpin RNA	competitive fluorescence anisotropy		pH 7.4, 20 °C, with: rhodamine-Rev peptide	0.043 ± 0.007 µM
VAQELRRIGDEV	BCL2L1	yeast display titration	peptide	2 h, pH 8.0, room temperature	0.0033 ± 0.0006 µM
O=c1c(O)c(-c2ccc(O)c(O)c2)oc2cc(O)cc(O)c12	Kcnh1, C-linker/CNBHD (Mus musculus, UniProt Q60603)	tryptophan FRET			≥ 93 µM and 93 µM
COc1ccc(-c2ccsc2)c(/C=N/NC(=O)c2ccccc2O)c1O	Ribonucleoside-diphosphate reductase large subunit	binding, fluorescence			9.4 µM
CC(C)[C@H](N)C(=O)O	Methyl-accepting chemotaxis protein Tlp3 (Campylobacter jejuni, UniProt Q0P864)	binding, ITC		melting temperature	3060 ± 267 µM
C[C@H](N)C(=O)N[C@@H](CCCNC(=N)N)C(=O)N[C@H](C(=O)N[C@@H](CCCCN)C(=O)N[C@@H](CCC(N)=O)C(=O)N[C@H](C(=O)N[C@@H](C)C(=O)N[C@@H](CCCNC(=N)N)C(=O)N[C@@H](CCCCN)C(=O)N[C@@H](CO)C(=O)N[C@H](C(=O)NCC(=O)O)[C@@H](C)O)[C@@H](C)O)[C@@H](C)O	Baculoviral IAP repeat-containing protein 5.1-A (birc5.1-a, Xenopus laevis, UniProt Q8JGN5)	ITC		pH 7.2, 25 °C	38.4 ± 5.3 µM
O=Cc1c(O)cccc1OCc1cccc(CO)n1	Hemoglobin subunit alpha, with beta chain (HBA1, Homo sapiens, UniProt P69905)	binding, cation-exchange HPLC-UV/Vis		kinetic Kd from koff/kon	100 µM
B1 (calmodulin C-domain)	rat NaV1.2 IQ motif	FRET biosensor titration		pH 7.4, 22 °C, calcium-saturated, with: 1 mM CaCl2	0.386 µM
CC1=C(/C=C/C(C)=C/C=C/C(C)=C/C=C/C=C(C)/C=C/C=C(C)/C=C/C2=C(C)C[C@H](O)CC2(C)C)C(C)(C)C[C@H](O)C1	Beta-lactoglobulin (LGB, Bos taurus, UniProt P02754)	binding, SPR			2.7 µM
CCCCCCCCCCCCCCCC(=O)OC[C@H](COP(=O)(O)OC1[C@H](O)[C@H](OP(=O)(O)O)C(OP(=O)(O)O)[C@H](OP(=O)(O)O)[C@H]1O)OC(=O)CCCCCCCCCCCCCCC (stereo partly drawn)	3-phosphoinositide-dependent protein kinase 1, PH domain (PDPK1, Homo sapiens, UniProt O15530, T513E)	lipid binding, FRET competition	plasma membrane-like bilayers		0.007 ± 0.002 µM
GGTFXGYWADLXAF (side-chain stapled)	MDM2 (Homo sapiens, UniProt Q00987)	binding, bacterial surface display flow cytometry	peptide, Escherichia coli cell surface	3 h, on ice, propargyl ether stabilized peptide, with: propargyl ether 500 µM	0.002 ± 0.00031 µM
O=C(N/N=C/c1c(O)ccc2ccccc12)c1ccc(-n2ccccc2=O)cc1	Ribonucleoside-diphosphate reductase large subunit	binding, fluorescence			9.7 µM
NC(=O)C1=CN([C@@H]2O[C@H](COP(=O)(O)OP(=O)(O)OC[C@H]3O[C@@H](n4cnc5c(N)ncnc54)[C@H](O)[C@@H]3O)[C@@H](O)[C@H]2O)C=CC1	Pyrroline-5-carboxylate reductase 3 (PYCR3, Homo sapiens, UniProt Q53H96)	binding, bisubstrate kinetics		pH 7.5, 26 °C, steady-state ordered bi bi, compound binds first	31 ± 14 µM
Cc1occc(=S)c1O	Carbonic anhydrase 2, Co(II)-substituted (CA2, Bos taurus, UniProt P00921)	binding, UV-vis titration		pH 7.5, deprotonated form	480 µM
Nc1c2ccccc2nc2ccccc12	voltage-gated sodium channel	sodium current, open-channel pore blocker, internal perfusion voltage clamp	Doryteuthis pealeii, pronase-treated giant axon	internal drug, 50 mM Na, zero voltage	58.6 ± 11.6 µM
C[n+]1cccc2cc(C=NNC(=O)c3ccc4ccc5ccc(C(=O)NN=Cc6ccc7c(ccc[n+]7C)c6)nc5c4n3)ccc21	MYC promoter G4 DNA	binding, native ESI-MS	100 mM trimethylammonium acetate	1 mM KCl	0.21 µM
CCCCCCCCCC[N+](CC)(CC)CC	Kcnma1 (Mus musculus, UniProt Q08460, E386N/E389N)	ion current, blocker, inside-out patch clamp		E321N/E324N double mutant, 100 mV	32.8 µM
[I-].[K+]	SLC4A1 (Homo sapiens, UniProt P02730)	Cl- exchange, inhibitor, 36Cl flux, two-site model	erythrocytes	both sites protonated	810 µM
COc1ccc(-c2ccccc2)c(/C=N/NC(=O)c2ccccc2O)c1O	Ribonucleoside-diphosphate reductase large subunit	binding, fluorescence		pH 8	35.4 µM
Nc1ncnc2c1ncn2[C@@H]1O[C@H](COP(=O)(O)OP(=O)(O)OP(=O)(O)O)[C@@H](O)[C@H]1O	FGR (Homo sapiens, UniProt P09769)				2.6 µM
O=C(N/N=C/c1cc(-c2ccccc2)ccc1O)c1ccccc1O	Ribonucleoside-diphosphate reductase large subunit	binding, fluorescence		pH 8	36 µM
Oregon Green	calcium	fluorescent indicator		pH 7.4, 22 °C	34.2 µM

Some of these lines once more:
Substance	target	assay	test system	conditions	Kd
Nc1nc2ncc(CNc3ccc(C(=O)N[C@@H](CCC(=O)O)C(=O)O)cc3)nc2c(=O)[nH]1	Eif4e (Mus musculus, UniProt P63073)	cap analogue binding, pyrene fluorescence competition		20 °C	> 10 µM
O=C1c2c(O)ccc(O)c2C(=O)c2c(NCCNCCO)ccc(NCCNCCO)c21	HIV-1 nucleocapsid-SL3 RNA complex	binding, ESI-FTMS		pH 7.5	10.3 ± 1.8 µM
